# Published values collected from several papers.
# Every numbered part comes from another study and shows a few of its results, in no order. “And” joins repeats or separate records; there may be more than shown.
# UniProt P54132, sequence (whole entry, looked up): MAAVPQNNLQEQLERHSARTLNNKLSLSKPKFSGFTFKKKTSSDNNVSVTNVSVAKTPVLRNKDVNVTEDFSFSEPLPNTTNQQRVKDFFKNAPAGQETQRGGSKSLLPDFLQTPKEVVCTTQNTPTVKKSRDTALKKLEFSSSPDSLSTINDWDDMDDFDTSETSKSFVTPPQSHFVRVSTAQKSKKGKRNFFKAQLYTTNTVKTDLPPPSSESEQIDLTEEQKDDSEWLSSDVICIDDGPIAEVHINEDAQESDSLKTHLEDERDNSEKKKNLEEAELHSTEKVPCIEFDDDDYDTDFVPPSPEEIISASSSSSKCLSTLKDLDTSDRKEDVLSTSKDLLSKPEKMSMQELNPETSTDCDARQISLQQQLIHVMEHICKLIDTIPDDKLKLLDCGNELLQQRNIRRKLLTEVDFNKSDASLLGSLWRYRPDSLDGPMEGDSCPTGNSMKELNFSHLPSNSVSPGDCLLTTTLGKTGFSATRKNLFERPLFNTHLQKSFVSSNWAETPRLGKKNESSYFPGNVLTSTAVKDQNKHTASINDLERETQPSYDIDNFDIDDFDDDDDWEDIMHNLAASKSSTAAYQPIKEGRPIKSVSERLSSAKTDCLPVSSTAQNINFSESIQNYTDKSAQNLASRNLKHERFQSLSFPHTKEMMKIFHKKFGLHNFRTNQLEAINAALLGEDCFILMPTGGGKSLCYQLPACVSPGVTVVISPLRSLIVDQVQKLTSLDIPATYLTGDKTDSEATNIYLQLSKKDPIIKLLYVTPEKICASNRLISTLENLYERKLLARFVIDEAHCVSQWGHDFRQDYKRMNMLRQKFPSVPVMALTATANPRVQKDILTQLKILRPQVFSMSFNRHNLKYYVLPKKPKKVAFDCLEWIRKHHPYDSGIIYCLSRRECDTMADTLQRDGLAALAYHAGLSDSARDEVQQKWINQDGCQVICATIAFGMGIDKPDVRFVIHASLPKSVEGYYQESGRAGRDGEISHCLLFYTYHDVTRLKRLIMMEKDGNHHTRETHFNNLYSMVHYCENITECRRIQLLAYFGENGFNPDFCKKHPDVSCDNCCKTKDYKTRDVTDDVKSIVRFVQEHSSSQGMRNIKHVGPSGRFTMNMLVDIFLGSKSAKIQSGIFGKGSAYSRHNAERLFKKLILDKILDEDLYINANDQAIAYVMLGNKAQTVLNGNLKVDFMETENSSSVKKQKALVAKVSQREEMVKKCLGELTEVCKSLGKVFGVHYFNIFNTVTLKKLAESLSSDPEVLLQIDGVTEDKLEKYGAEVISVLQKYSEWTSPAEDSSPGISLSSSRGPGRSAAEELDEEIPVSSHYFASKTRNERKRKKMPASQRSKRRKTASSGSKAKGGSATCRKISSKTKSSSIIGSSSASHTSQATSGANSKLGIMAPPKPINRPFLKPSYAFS
# UniProt Q9UM73, sequence (whole entry, unmodified, looked up): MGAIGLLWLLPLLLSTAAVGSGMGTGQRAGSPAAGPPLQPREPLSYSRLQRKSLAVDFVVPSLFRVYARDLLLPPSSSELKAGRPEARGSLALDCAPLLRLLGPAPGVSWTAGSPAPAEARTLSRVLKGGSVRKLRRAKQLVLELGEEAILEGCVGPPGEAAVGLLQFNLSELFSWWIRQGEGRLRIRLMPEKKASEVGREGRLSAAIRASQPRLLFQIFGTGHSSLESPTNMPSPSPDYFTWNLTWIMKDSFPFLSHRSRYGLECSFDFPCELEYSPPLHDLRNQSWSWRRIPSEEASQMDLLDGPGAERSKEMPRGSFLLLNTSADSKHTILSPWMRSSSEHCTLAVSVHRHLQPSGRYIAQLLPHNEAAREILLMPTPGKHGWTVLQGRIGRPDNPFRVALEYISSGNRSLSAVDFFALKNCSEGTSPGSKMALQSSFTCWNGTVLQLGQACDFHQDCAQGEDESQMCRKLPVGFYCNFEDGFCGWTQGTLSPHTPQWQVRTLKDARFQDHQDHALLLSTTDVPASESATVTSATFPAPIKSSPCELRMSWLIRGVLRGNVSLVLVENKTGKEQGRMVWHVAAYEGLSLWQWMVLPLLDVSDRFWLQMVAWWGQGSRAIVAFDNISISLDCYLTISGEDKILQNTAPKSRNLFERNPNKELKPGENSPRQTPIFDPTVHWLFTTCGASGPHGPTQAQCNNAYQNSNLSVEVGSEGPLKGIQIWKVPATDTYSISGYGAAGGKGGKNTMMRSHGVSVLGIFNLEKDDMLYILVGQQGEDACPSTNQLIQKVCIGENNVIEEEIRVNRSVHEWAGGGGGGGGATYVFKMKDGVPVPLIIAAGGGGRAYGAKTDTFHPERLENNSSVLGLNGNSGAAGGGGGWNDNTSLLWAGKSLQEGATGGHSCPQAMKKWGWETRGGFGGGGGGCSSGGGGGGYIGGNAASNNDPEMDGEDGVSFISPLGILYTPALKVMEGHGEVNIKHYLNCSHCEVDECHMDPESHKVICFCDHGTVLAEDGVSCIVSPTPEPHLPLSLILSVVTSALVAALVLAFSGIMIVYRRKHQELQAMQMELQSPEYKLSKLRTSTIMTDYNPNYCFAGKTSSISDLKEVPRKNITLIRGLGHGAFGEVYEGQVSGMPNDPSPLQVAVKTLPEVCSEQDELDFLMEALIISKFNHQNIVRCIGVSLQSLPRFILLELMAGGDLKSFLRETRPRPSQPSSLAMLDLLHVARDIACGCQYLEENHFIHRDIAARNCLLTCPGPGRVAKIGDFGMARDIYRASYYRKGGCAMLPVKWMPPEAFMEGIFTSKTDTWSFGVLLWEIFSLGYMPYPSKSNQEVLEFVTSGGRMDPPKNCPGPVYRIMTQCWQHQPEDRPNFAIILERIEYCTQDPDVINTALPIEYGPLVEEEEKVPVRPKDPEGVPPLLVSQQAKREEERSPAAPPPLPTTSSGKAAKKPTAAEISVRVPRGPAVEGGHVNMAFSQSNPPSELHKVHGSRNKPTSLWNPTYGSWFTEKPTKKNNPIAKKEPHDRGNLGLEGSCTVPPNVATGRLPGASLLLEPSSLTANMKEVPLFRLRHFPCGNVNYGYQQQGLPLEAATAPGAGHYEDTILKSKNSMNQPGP
# UniProt Q8NE63, sequence (whole entry, looked up): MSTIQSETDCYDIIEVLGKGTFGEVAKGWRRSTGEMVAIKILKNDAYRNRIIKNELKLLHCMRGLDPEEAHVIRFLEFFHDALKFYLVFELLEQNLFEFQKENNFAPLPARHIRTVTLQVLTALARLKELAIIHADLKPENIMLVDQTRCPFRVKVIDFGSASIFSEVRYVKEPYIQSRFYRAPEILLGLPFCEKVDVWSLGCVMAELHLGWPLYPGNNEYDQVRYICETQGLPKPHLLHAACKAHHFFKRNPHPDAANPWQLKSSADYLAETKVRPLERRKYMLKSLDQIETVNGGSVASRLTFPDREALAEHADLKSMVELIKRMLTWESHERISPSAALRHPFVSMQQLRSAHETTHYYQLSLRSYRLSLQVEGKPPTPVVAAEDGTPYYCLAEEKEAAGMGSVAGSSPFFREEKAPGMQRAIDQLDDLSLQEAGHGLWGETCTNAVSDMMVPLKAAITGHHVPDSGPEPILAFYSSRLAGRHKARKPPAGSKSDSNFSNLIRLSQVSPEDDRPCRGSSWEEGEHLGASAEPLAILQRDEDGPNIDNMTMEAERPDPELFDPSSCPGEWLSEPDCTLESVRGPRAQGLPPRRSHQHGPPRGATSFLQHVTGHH
# UniProt P37023, sequence (whole entry, looked up): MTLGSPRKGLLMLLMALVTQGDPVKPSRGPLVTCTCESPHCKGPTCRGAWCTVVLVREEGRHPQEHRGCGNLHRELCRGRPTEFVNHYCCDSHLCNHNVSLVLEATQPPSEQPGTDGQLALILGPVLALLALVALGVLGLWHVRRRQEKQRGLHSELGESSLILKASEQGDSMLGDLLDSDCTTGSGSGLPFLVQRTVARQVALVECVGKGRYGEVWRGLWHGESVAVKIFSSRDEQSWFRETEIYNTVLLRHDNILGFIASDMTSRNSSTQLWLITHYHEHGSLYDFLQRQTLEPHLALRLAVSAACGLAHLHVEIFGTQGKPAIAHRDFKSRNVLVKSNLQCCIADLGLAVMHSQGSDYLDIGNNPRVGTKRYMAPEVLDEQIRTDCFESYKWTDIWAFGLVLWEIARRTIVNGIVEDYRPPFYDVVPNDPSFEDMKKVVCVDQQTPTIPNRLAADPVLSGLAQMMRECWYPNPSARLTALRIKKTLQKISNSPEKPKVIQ
# UniProt P50750, sequence (whole entry, looked up): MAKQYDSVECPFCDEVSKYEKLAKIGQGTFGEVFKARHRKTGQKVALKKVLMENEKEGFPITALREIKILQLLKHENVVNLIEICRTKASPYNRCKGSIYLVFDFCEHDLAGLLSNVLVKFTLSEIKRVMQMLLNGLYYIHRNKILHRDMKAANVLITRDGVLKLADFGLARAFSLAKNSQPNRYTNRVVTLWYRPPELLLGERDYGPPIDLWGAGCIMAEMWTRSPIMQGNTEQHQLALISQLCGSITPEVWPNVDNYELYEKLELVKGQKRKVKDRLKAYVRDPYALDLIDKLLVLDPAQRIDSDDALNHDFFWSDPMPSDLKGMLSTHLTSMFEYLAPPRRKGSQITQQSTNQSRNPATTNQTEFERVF

# Set 1 — read-out: enzyme activity; action: inhibitor; concentration: 0.5 µM; reference: control
# Compound: Nc1nc(Nc2ccc(S(N)(=O)=O)cc2)nn1C(=O)c1c(F)cccc1F
target,remaining activity
"G protein-coupled receptor kinase 4 (GRK4, Homo sapiens, UniProt P32298)",94.7%
"Dual specificity protein kinase CLK4 (CLK4, Homo sapiens, UniProt Q9HAZ1)",41.6%
"Cyclin-dependent kinase 9, with cyclin K (CDK9, Homo sapiens, UniProt P50750)",27.4%
"Tyrosine-protein kinase TXK (TXK, Homo sapiens, UniProt P42681)",95.8%
"Discoidin domain-containing receptor 2 (DDR2, Homo sapiens, UniProt Q16832)",113%
"Mitogen-activated protein kinase 11 (MAPK11, Homo sapiens, UniProt Q15759)",94%
"Serine/threonine-protein kinase MRCK beta (CDC42BPB, Homo sapiens, UniProt Q9Y5S2)",96%
"Serine/threonine-protein kinase PLK3 (PLK3, Homo sapiens, UniProt Q9H4B4)",91.3%
"Ribosomal protein S6 kinase alpha-4 (RPS6KA4, Homo sapiens, UniProt O75676)",90.2%
"Calcium/calmodulin-dependent protein kinase type 1B (PNCK, Homo sapiens, UniProt Q6P2M8)",107%
"Rho-associated protein kinase 1 (ROCK1, Homo sapiens, UniProt Q13464)",42.6%
"Serine/threonine-protein kinase DCLK2 (DCLK2, Homo sapiens, UniProt Q8N568)",85.3%
"MAP/microtubule affinity-regulating kinase 4 (MARK4, Homo sapiens, UniProt Q96L34)",48%
"Misshapen-like kinase 1 (MINK1, Homo sapiens, UniProt Q8N4C8)",98.1%
"Hepatocyte growth factor receptor (MET, Homo sapiens, UniProt P08581)",75.3%
"Serine/threonine-protein kinase Nek3 (NEK3, Homo sapiens, UniProt P51956)",92.6%
"Mitogen-activated protein kinase 1 (MAPK1, Homo sapiens, UniProt P28482)",98.4%
"Calcium/calmodulin-dependent protein kinase type IV (CAMK4, Homo sapiens, UniProt Q16566)",96.8%
"Mitogen-activated protein kinase 14 (MAPK14, Homo sapiens, UniProt Q16539)",97.8%
"Vascular endothelial growth factor receptor 2 (KDR, Homo sapiens, UniProt P35968)",64.6%
"Dual specificity protein kinase CLK3 (CLK3, Homo sapiens, UniProt P49761)",65.8%

# Set 2 — action: agonist
# Target: Beta-1 adrenergic receptor (ADRB1, Homo sapiens, UniProt P08588)
# UniProt P08588, sequence (whole entry, looked up): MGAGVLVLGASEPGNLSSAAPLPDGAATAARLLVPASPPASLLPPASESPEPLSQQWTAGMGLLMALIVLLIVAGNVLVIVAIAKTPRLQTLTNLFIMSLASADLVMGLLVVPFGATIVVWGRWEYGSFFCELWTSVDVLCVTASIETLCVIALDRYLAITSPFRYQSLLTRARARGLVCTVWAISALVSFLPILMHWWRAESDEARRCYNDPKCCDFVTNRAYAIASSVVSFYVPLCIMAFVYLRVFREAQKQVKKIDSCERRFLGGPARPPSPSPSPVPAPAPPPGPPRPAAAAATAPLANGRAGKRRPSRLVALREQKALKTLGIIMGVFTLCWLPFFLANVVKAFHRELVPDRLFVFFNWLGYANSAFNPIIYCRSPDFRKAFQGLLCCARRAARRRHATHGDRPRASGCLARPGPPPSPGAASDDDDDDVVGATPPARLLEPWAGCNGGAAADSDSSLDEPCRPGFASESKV
Compound,EC50
CN(C)c1cc(=O)c2ccnc(Nc3cccnc3)c2o1,≥ 100 µM
Cc1cccc(CCNc2ncc(C(C)(C)C(=O)O)c(N3CCOCC3)n2)n1,≥ 100 µM
COc1ccc(CN2CCOc3nc(-c4cn[nH]c4)ncc3C2=O)cc1,≥ 100 µM
CN(C)c1ccc2nc3ccc(=[N+](C)C)cc-3sc2c1,12.6 µM
O=C(Nc1ccccc1OC(F)(F)F)c1sc2cc(F)ccc2c1Cl,≥ 100 µM
Cc1ccc2c(-c3ccc(NC4CC4)nn3)cccc2n1,≥ 100 µM

# Set 3 — technique: competition with immobilised ligand; concentration: 1 µM
# Compound: NS(=O)(=O)c1cc(NC(=O)Cc2ccccc2)ccc1Oc1cccc(Cl)c1
target,read-out,remaining binding [%]
"Phosphatidylinositol 4,5-bisphosphate 3-kinase catalytic subunit alpha isoform (PIK3CA, Homo sapiens, UniProt P42336, I800L)",cell-free assay,82
"Protein kinase C iota type (PRKCI, Homo sapiens, UniProt P41743)",cell-free assay,93
"Receptor-type tyrosine-protein kinase FLT3 (FLT3, Homo sapiens, UniProt P36888, F691L/ITD)",cell-free assay,97
"Phosphatidylinositol 3-kinase C2 domain-containing subunit gamma (PIK3C2G, Homo sapiens, UniProt O75747)",cell-free assay,72
"Activin receptor type-1-like (ACVRL1, Homo sapiens, UniProt P37023)",binding,99
"Transient receptor potential cation channel subfamily M member 6 (TRPM6, Homo sapiens, UniProt Q9BX84)",cell-free assay,84
"ALK tyrosine kinase receptor (ALK, Homo sapiens, UniProt Q9UM73, L1196M)",cell-free assay,62
"Homeodomain-interacting protein kinase 4 (HIPK4, Homo sapiens, UniProt Q8NE63)",cell-free assay,100
"Serine/threonine-protein kinase 32B (STK32B, Homo sapiens, UniProt Q9NY57)",cell-free assay,100

# Set 4 — SMILES: O=C(Nc1ccccc1)Nc1cccc(Oc2ccc3nccn3n2)c1; concentration: 1 µM
target,technique,notes,reference,remaining binding [%]
"Serine/threonine-protein kinase tousled-like 1 (TLK1, Homo sapiens, UniProt Q9UKI8)",competitive binding panel,,vehicle,83
"Mitogen-activated protein kinase kinase kinase 4 (MAP3K4, Homo sapiens, UniProt Q9Y6R4)",competitive binding panel,,vehicle,96
"ALK tyrosine kinase receptor (ALK, Homo sapiens, UniProt Q9UM73)",competitive binding panel,,vehicle,83
"BMP-2-inducible protein kinase (BMP2K, Homo sapiens, UniProt Q9NSY1)",competitive binding,BIKE,,100
"Serine/threonine-protein kinase BRSK2 (BRSK2, Homo sapiens, UniProt Q8IWQ3)",competitive binding panel,,vehicle,100

# Other studies, line by line
SMILES,target,read-out,technique,concentration,reference,quantity,result
CO[C@@H]1[C@@H](OC(N)=O)[C@@H](O)[C@H](Oc2ccc3c(O)c(NC(=O)c4ccc(O)c(CC=C(C)C)c4)c(=O)oc3c2C)OC1(C)C,"RecQ-like DNA helicase BLM (BLM, Homo sapiens, UniProt P54132)",ATPase activity,ADP-Glo,25 µM,DMSO,remaining activity,93.3% and 96.7% and 103% and 97.3% and 102%

# Repeated from above (set 2):
Compound,EC50
Cc1cccc(CCNc2ncc(C(C)(C)C(=O)O)c(N3CCOCC3)n2)n1,≥ 100 µM
COc1ccc(CN2CCOc3nc(-c4cn[nH]c4)ncc3C2=O)cc1,≥ 100 µM
CN(C)c1ccc2nc3ccc(=[N+](C)C)cc-3sc2c1,12.6 µM
CN(C)c1cc(=O)c2ccnc(Nc3cccnc3)c2o1,≥ 100 µM
